Measurements pooled from the literature.
Numbered parts are unrelated; each lists some results of a single study. Substitutions count along the parent as printed.

Block 1 — method: RNA Bind-n-Seq; molecule type: RNA; sample: in vitro; tested at: 200 nM; setting: whole 134-nt RNA, ends assumed; added: 150 mM LiCl; relative to: input library; reading: higher = stronger binding; library: 7-deaza-guanosine replaces G
Target: Fragile X messenger ribonucleoprotein 1, C-terminal low-complexity region (Fmr1, Mus musculus, UniProt P35922)
The log2 enrichment of `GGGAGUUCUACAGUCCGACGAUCGUCCUGUGCUACACAUCGUAUGUACCGAAUCGGAAAAAAGGAAAAAAGGGGAAAAAAGGAAAGUAUUAUGUUACGCCGUUCGGAUCUGCAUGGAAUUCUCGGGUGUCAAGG` is reported as -0.0551.
`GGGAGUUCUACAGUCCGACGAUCUGGCCCUGGUCGCAUGCGGGGAGGAAGAGGUGGCCUCAUGGAUCGUGGUGGUCCCGGUGGAAUGUUCAGAGGUGGCCGUGGUGGAGACAGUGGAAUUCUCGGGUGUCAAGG` has a log2 enrichment of 0.15.
The log2 enrichment of `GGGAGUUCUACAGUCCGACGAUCUGCUAGGCAAUGGAUCACUUGGAGUCCUUUAUUGCUGAAUGUGAUCGGAGAACUGAGCUCGCCAAGAAGCGGCUGGCAGAAACACAGGAGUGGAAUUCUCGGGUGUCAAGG` is reported as -1.24.
For `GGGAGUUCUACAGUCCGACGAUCCCUGUGCUACACAUCGUAUGUACCGAAUCAAAUUUUUUUAAACCCCCCCAAACCCCCAAAAAAGUAUUAUGUUACGCCGUUCGGAUCUGCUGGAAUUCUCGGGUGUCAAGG`, the log2 enrichment was 1.64.
`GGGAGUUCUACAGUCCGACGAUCCAAGUCCUGUGCUACACAUCGUAUGUACCGAAUCGGAAAAAGGUUUUUUUGGUGGAAAGUAUUAUGUUACGCCGUUCGGAUCUGCACUUCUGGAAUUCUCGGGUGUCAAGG` has a log2 enrichment of -2.12.
For `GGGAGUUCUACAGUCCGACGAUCCCUCAAGUCCUGUGCUACACAUCGUAUGUACCGAAUCGGGGAGGAGGAGGGGAAAGUAUUAUGUUACGCCGUUCGGAUCUGCACUUCCAGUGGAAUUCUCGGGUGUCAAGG`, the log2 enrichment was -0.0335.
`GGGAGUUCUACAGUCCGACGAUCGGUAUUCUGCAAGUACUGUAGAUGUUAUAGAAAUGAUGGAGGAUGAUAAAGUUGAUCUGAAUUUGAUUGUUGCCCUCAUCCGAUACAUUGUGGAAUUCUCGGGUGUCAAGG` has a log2 enrichment of -1.13.
With `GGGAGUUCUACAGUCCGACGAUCUUCAUGAGGACCUCCGCCUGCUCUUGGAGACCCACCUGCCGUCCAAAAAGAAGAAAGUACUCUUGGGAGUUGGGGAUCCCAAGAUUGGUGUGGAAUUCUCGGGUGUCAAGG` the log2 enrichment was 0.741.

Block 2 — target: CCNA1, cyclin fold, Cln2 fusion (human); method: yeast growth competition, sequencing; sample: yeast; setting: weak parent motif; relative to: not given; reading: higher = stronger binding
Parent: PKN2 docking peptide (human); VSAVQKLDFSDTM; partner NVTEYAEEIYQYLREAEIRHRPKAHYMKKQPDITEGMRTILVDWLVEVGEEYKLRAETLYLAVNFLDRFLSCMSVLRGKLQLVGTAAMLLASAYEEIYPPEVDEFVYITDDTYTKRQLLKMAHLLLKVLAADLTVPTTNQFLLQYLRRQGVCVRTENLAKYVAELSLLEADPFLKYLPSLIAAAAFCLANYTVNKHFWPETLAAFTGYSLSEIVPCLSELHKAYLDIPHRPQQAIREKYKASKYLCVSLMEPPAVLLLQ
`VSAVQKLDFRDTM [S10R]`: “normalised enrichment score” 0.172.
Under “normalised enrichment score”, `VSAVQKLDWSDTM [F9W]` is recorded as 0.13.
For `VSDVQKLDFSDTM [A3D]`, “normalised enrichment score” read -0.0455.
Under “normalised enrichment score”, `VSAVQFLDFSDTM [K6F]` is recorded as 0.163.
For `VSAVQKLDFSDTS [M13S]`, “normalised enrichment score” read 0.376.
For `VDAVQKLDFSDTM [S2D]`, “normalised enrichment score” read -0.131.

Block 3 — method: DHFR PCA, deep sequencing; sample: yeast; added: (+)-ABA 17 µM; relative to: wild-type fitted maximum; reading: higher = stronger binding
Target: ABI1, truncated, D143A, DHFR fusion (Arabidopsis thaliana)
Setting: methotrexate growth selection, single substitutions
Parent: PYL1, truncated, DHFR fusion (Arabidopsis thaliana); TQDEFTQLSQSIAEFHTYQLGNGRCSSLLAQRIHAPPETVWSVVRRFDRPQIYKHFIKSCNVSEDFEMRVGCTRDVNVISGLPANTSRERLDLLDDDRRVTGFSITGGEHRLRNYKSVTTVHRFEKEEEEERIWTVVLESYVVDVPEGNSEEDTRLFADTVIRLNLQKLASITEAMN; partner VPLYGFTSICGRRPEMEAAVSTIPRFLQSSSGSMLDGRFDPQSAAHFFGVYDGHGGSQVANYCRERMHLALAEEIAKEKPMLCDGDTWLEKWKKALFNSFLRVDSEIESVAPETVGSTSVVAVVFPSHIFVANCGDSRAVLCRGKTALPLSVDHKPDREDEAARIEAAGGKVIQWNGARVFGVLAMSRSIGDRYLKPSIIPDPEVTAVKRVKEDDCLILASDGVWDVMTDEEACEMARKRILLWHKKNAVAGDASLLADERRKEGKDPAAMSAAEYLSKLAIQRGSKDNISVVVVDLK
`P83S`: “relative binding score” 36.5%.
For `E125Q`, “relative binding score” read 91.5%.
`E129R`: “relative binding score” 79.2%.
For `S27W`, “relative binding score” read 4.4%.
`D75F` — result for “relative binding score”: 80.3%.
`F124L`: “relative binding score” 101%.
`F66M` — result for “relative binding score”: 73.2%.

Mixed results
The fold induction of `PhoQ, residues 284 288 289 292 302 303 SQSLSM` is reported as 1.31 (PhoP, residues 12 14 15 18 19 HLGGL (Escherichia coli, UniProt P23836); Sort-seq, measured: YFP reporter; E. coli; PhoQ-PhoP variant library, added: 10 µM Mg2+; relative to: high Mg2+ state, higher = stronger signaling).

A few entries again (block 1):
`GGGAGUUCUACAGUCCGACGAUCGGUAUUCUGCAAGUACUGUAGAUGUUAUAGAAAUGAUGGAGGAUGAUAAAGUUGAUCUGAAUUUGAUUGUUGCCCUCAUCCGAUACAUUGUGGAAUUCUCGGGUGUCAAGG` has a log2 enrichment of -1.13.
For `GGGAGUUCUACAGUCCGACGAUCCCUGUGCUACACAUCGUAUGUACCGAAUCAAAUUUUUUUAAACCCCCCCAAACCCCCAAAAAAGUAUUAUGUUACGCCGUUCGGAUCUGCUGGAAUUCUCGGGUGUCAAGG`, the log2 enrichment was 1.64.
